Published values pooled from the literature.
± marks the error that the study gave.
Chain of UniProt P47713 (whole entry, looked up): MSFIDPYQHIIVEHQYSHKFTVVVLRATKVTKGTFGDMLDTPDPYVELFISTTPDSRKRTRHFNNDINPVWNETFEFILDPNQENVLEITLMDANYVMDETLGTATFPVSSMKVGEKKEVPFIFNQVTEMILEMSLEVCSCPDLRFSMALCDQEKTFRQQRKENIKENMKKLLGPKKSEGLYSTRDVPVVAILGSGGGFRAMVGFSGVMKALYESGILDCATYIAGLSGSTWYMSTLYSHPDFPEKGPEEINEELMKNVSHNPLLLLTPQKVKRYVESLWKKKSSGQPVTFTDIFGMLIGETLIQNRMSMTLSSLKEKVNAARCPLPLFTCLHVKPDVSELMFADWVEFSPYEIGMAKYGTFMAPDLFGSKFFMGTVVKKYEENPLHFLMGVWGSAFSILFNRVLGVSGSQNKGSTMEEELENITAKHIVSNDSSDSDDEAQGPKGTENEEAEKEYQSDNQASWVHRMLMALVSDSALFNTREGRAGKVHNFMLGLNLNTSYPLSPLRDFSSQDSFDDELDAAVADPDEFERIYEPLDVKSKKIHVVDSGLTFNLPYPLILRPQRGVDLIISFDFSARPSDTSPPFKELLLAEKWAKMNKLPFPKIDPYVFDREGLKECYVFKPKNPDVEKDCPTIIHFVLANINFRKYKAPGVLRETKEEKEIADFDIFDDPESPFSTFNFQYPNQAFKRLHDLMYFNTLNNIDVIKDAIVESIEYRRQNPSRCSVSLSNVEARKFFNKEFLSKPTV
Chain of UniProt P14061 (whole entry, looked up): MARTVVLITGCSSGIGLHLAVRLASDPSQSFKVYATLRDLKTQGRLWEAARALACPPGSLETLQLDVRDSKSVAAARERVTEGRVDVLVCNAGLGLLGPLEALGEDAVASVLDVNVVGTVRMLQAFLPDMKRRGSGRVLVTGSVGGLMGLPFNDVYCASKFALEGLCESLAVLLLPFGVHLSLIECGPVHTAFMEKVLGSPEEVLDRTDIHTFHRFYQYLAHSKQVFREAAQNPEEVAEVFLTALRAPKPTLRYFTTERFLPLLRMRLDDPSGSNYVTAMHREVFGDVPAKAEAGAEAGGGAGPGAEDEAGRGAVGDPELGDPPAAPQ
Chain of UniProt P0AGE0 (whole entry, looked up): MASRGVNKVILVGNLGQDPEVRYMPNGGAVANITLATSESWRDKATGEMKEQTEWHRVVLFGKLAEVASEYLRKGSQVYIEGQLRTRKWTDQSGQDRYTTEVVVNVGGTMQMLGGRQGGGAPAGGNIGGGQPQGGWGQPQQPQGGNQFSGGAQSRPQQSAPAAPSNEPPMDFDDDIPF
Chain of UniProt O14786 (whole entry, looked up): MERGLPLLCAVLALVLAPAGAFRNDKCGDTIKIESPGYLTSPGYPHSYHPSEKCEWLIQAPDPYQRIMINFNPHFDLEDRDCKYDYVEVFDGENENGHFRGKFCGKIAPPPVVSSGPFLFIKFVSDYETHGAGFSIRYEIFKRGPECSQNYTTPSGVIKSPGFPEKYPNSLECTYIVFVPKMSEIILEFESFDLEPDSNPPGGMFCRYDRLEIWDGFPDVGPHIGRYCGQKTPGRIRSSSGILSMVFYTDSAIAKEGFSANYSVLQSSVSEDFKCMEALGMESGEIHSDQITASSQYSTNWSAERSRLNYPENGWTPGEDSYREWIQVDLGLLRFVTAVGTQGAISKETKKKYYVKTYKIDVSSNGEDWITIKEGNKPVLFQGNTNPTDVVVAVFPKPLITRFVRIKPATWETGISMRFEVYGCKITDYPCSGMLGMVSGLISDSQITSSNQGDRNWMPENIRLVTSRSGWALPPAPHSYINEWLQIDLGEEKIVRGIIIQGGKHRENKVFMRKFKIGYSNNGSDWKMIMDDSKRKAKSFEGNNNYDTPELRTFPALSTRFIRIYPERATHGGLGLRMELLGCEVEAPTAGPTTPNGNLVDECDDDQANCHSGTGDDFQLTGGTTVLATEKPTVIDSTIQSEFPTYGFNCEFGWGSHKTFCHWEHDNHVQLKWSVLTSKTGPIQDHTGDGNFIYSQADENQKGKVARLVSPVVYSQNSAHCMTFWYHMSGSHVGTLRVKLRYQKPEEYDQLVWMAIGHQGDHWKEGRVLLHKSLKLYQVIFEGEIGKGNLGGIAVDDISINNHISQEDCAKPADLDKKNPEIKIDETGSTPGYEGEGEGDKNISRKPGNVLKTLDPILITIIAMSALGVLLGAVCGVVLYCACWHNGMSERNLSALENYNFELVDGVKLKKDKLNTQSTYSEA
Chain of UniProt P28074 (whole entry, looked up): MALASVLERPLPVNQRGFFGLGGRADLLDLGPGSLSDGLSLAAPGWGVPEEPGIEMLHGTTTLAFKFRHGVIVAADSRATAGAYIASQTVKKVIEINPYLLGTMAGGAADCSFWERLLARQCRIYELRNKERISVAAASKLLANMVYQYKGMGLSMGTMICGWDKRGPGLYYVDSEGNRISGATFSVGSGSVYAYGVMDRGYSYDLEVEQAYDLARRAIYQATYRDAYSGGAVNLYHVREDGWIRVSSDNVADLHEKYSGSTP
Chain of UniProt Q01650 (whole entry, looked up): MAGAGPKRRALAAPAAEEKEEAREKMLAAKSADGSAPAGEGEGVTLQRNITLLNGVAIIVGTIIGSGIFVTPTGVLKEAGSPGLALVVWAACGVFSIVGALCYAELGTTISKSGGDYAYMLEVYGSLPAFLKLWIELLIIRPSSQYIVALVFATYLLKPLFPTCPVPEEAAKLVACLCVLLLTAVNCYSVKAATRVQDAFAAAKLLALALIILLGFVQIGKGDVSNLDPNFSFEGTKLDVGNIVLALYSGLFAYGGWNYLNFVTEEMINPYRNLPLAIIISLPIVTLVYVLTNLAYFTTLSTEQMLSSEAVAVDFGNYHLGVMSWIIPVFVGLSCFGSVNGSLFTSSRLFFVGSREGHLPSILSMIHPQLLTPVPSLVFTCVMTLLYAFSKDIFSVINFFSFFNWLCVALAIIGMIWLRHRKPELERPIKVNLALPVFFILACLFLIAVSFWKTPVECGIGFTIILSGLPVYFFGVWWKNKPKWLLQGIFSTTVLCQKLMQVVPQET
Chain of UniProt P37023 (whole entry, looked up): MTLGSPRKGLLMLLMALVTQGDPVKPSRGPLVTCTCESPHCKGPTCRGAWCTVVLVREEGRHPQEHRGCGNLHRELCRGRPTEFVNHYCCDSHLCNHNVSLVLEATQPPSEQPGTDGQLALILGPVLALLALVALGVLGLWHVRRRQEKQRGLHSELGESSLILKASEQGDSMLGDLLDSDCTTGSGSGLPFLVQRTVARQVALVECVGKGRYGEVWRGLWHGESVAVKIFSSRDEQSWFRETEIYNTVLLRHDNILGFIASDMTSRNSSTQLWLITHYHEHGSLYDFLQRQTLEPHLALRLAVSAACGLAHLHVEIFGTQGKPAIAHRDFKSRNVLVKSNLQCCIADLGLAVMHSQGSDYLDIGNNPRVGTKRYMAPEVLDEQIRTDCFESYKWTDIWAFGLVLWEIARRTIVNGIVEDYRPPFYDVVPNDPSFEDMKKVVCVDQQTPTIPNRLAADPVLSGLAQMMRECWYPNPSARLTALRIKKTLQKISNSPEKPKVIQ
Chain of UniProt P20618 (whole entry, looked up): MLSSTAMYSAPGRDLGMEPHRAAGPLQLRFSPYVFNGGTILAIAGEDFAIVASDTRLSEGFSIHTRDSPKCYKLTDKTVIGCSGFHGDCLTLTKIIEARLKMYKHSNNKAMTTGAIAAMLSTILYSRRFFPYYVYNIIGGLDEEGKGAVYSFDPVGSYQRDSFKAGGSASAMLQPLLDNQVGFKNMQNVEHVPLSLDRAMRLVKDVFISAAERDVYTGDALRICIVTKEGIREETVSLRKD
Chain of UniProt P45984 (whole entry, looked up): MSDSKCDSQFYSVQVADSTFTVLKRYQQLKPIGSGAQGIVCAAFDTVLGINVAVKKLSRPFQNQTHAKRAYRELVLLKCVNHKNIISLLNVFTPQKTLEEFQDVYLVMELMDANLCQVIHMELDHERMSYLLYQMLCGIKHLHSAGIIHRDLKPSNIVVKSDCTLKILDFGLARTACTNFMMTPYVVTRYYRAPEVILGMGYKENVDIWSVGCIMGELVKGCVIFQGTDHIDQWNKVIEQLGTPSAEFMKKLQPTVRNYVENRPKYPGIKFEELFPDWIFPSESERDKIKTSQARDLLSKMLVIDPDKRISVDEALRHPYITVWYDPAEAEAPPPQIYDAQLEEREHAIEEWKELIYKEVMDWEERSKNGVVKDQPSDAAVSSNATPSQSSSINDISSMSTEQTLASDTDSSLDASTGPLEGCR
Chain of UniProt Q08499 (whole entry, looked up): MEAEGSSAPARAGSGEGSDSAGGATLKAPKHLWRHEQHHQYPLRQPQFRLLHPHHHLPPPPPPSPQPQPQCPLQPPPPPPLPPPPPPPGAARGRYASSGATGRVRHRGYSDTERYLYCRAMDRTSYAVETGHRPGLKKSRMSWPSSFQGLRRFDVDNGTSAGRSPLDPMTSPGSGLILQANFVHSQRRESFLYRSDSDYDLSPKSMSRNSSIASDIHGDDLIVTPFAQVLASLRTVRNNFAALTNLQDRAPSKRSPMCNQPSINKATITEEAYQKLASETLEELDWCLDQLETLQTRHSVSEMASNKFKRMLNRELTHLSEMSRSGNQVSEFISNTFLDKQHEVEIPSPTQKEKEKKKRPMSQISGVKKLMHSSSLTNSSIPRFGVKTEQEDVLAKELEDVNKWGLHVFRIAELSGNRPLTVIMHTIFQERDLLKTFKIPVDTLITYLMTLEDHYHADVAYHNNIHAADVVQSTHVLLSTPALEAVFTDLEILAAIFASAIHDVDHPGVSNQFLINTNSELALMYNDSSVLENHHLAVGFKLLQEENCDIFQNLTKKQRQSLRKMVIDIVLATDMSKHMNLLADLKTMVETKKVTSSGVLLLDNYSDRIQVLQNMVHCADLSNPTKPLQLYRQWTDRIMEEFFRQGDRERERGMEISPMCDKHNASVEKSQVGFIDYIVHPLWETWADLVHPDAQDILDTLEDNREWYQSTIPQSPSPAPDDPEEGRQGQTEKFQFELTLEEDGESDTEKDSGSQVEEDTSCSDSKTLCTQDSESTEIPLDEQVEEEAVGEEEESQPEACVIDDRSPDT

With `C=CCNC(=O)[C@H](CCc1ccccc1)NC(=O)[C@H](CC(=O)NCC(C)(C)C)NC(=O)CCc1ccccc1` the IC50 was 0.044 µM (Proteasome component C5/PSMB8 (Homo sapiens, UniProt P20618+P28062); inhibitor).
For `O=C1CSC(c2cccc(Br)c2)N1c1cc(Cl)ccc1O` (centres unmarked), the IC50 was 11 µM (ACTR2/ACTR3 (Bos taurus, UniProt A7MB62+P61157); actin polymerization, inhibitor, pyrenyl-actin; 3 µM actin, 30% pyrenyl, with: 5 nM Arp2/3 complex, 1 µM N-WASp-VCA).
`C=C(NC(=O)C(=C)NC(=O)c1csc(C2=NC3c4csc(n4)C4NC(=O)c5csc(n5)C(C(C)(O)C(C)O)NC(=O)C5CSC(=N5)C(=CC)NC(=O)C(C(C)O)NC(=O)c5csc(n5)C3(CC2)NC(=O)C(CC(N)=O)NC(=O)C(=C)NC(=O)C(C)NC(=O)C(C(C)CC)NC2C=Cc3c(C(C)O)cc(nc3C2O)C(=O)OC4C)n1)C(N)=O` (centres unmarked) gave an IC50 of 0.89 ± 0.17 µM (Proteasome Macropain subunit MB1 (PSMB5, Homo sapiens, UniProt P28074); chymotrypsin-like activity, inhibitor; purified 20S proteasome; 15 min preincubation, 37 °C, with: Suc-Leu-Leu-Val-Tyr-AMC substrate).
The IC50 of `CCCCNC(=O)OCCCO[C@@H]1CC(=O)[C@@]2(C)CC[C@@H]3c4ccc(O)cc4CC[C@H]3[C@H]12` is reported as 1.4 µM (17-beta-hydroxysteroid dehydrogenase type 1 (HSD17B1, Homo sapiens, UniProt P14061); enzyme activity, inhibitor, radiometric).
The IC50 of `N=C(N)NCCC[C@H](NC(=O)[C@H](CCCNC(=N)N)NC(=O)[C@H](CC(N)=O)NC(=O)[C@H](CCCNC(=N)N)NC(=O)[C@@H]1CCCN1C(=O)[C@H](CCCCN)NC(=O)[C@H](CCCCN)NC(=O)[C@H](CCC(N)=O)NC(=O)[C@H](CC(=O)O)NC(=O)[C@@H](N)Cc1c[nH]c2ccccc12)C(=O)O` is reported as 11 µM (Neuropilin-1 (NRP1, Homo sapiens, UniProt O14786); inhibitor, plate binding; 1 h, 25 °C).
For `Cc1cc(N2CC[C@@](C#N)(C3(C)CC3)C2=O)cc(C(=O)NCc2cc(F)cc(-c3cnn(C)c3)c2)n1`, the IC50 was over 1 µM (panel of 303 human kinases; enzyme activity; all kinases).
`COc1cc(-c2nc3ccc(C(=O)NCCCN4CCN(c5ccccn5)CC4)cc3n2C2CCC2)cc(OC)c1OC` gave an IC50 of over 30 µM (Activin receptor type-1-like (ACVRL1, Homo sapiens, UniProt P37023); target engagement in cells, BRET).
The IC50 of `O=C1CCc2ccc(NS(=O)(=O)c3cccc(Oc4ccccc4)c3)cc2N1` is reported as 0.00088 µM (Cytosolic phospholipase A2 (Mus musculus, UniProt P47713); arachidonic acid release; BV-2; with: A23187).
`Cc1ccc2nc(-c3ccc(N=NNc4ccc(-c5nc6ccc(C)c(S(=O)(=O)O)c6s5)cc4)cc3)sc2c1S(=O)(=O)O` gave an IC50 of 2.9 ± 0.2 µM (Single-stranded DNA-binding protein (ssb, Escherichia coli, UniProt P0AGE0); DNA binding, fluorescence polarization; with: Cy5-dT15 DNA 5 nM).
`Nc1nc(Cl)nc2c1ncn2Cc1cc(OCC(F)F)cc(OC(F)F)c1` has an IC50 of 5.49 µM (3',5'-cyclic-AMP phosphodiesterase 4D (PDE4D, Homo sapiens, UniProt Q08499); enzyme activity, inhibitor).
For `N[C@@H](Cc1c[nH]c2ccc(OCc3cccc(-c4ccccc4)c3)cc12)C(=O)O`, the IC50 was 24 µM (Large neutral amino acids transporter small subunit 1 (SLC7A5, Homo sapiens, UniProt Q01650); transporter uptake, inhibitor, radiometric).
With `Cc1ccc(OCC(=O)N[C@@H](Cc2cn(CCNC(=O)c3ccc(S[C@@H]4O[C@H](CO)[C@H](O)[C@H](O)[C@H]4O)cc3)nn2)C(=O)NCCO)cc1` the IC50 was 60.7 µM (PA-I galactophilic lectin (lecA, Pseudomonas aeruginosa, UniProt Q05097); ligand displacement, FP).
For `CC[C@H](C)[C@H](NC(=O)[C@H](CCCNC(=N)N)NC(=O)[C@H](CC(N)=O)NC(=O)[C@H](C)NC(=O)[C@H](Cc1c[nH]cn1)NC(=O)[C@@H](NC(=O)[C@H](CCC(N)=O)NC(=O)[C@@H]1CCCN1C(=O)[C@@H](N)CC(=O)O)[C@@H](C)O)C(=O)N[C@@H](Cc1ccc(O)cc1)C(=O)N[C@@H](CCCNC(=N)N)C(=O)N[C@@H](CCSC)C(=O)N[C@H](C(=O)N[C@@H](CCCCN)C(=O)N[C@@H](CC(C)C)C(=O)N[C@@H](CC(C)C)C(=O)N[C@@H](CC(C)C)C(=O)NCC(=O)O)[C@@H](C)CC`, the IC50 was 94.5 ± 3.6 µM (Hsp90; luciferase refolding, inhibitor; rabbit reticulocyte lysate; with: heat-denatured luciferase).
`Cc1ccc(NC(=O)Nc2cnn(-c3cccc(C(=O)Nc4ccnc(C)c4)c3)c2)cc1` has an IC50 of 0.836 µM (Mitogen-activated protein kinase 9 (MAPK9, Homo sapiens, UniProt P45984); enzyme activity, inhibitor).

Some of these lines once more:
`Nc1nc(Cl)nc2c1ncn2Cc1cc(OCC(F)F)cc(OC(F)F)c1` has an IC50 of 5.49 µM (3',5'-cyclic-AMP phosphodiesterase 4D (PDE4D, Homo sapiens, UniProt Q08499); enzyme activity, inhibitor).
For `N[C@@H](Cc1c[nH]c2ccc(OCc3cccc(-c4ccccc4)c3)cc12)C(=O)O`, the IC50 was 24 µM (Large neutral amino acids transporter small subunit 1 (SLC7A5, Homo sapiens, UniProt Q01650); transporter uptake, inhibitor, radiometric).
